Measurements gathered from unrelated publications.
Lines come from different studies, so protocols differ.

COC[C@H]1C[C@@H](c2ncc(-c3ccc4c(c3)COc3cc5c(ccc6nc([C@@H]7CC[C@H](C)N7C(=O)[C@@H](NC(=O)OC)C(C)C)[nH]c65)cc3-4)[nH]2)N(C(=O)[C@H](NC(=O)OC)c2ccccc2)C1  oral clearance (human, plasma; oral, 150 mg): 32 L/h
OCc1cc(C(O)CNCCCCCCOCCCCc2ccccc2)ccc1O (stereo not drawn)  oral bioavailability (human; oral): 12%
CC[C@H](C)[C@H](NC(=O)[C@H](Cc1ccccc1)NC(=O)[C@H](CCC(=O)O)NC(=O)[C@H](CCCCNC(=O)COCCOCCNC(=O)COCCOCCNC(=O)CC[C@H](NC(=O)CCCCCCCCCCCCCCCCC(=O)O)C(=O)O)NC(=O)[C@H](C)NC(=O)[C@H](C)NC(=O)[C@H](CCC(N)=O)NC(=O)CNC(=O)[C@H](CCC(=O)O)NC(=O)[C@H](CC(C)C)NC(=O)[C@H](Cc1ccc(O)cc1)NC(=O)[C@H](CO)NC(=O)[C@H](CO)NC(=O)[C@@H](NC(=O)[C@H](CC(=O)O)NC(=O)[C@H](CO)NC(=O)[C@@H](NC(=O)[C@H](Cc1ccccc1)NC(=O)[C@@H](NC(=O)CNC(=O)[C@H](CCC(=O)O)NC(=O)C(C)(C)NC(=O)[C@@H](N)Cc1cnc[nH]1)[C@@H](C)O)[C@@H](C)O)C(C)C)C(=O)N[C@@H](C)C(=O)N[C@@H](Cc1c[nH]c2ccccc12)C(=O)N[C@@H](CC(C)C)C(=O)N[C@H](C(=O)N[C@@H](CCCNC(=N)N)C(=O)NCC(=O)N[C@@H](CCCNC(=N)N)C(=O)NCC(=O)O)C(C)C  oral bioavailability (human; oral, fasting 30 min post-dose, water up to 120 mL): 0.795%
C=CC(=O)Nc1cc(Nc2nccc(-c3cn(C)c4ccccc34)n2)c(OC)cc1N(C)CCN(C)C  oral clearance (human patients, plasma; oral, arithmetic mean): 16.4 L/h
COc1cc(Nc2ncc3c(n2)-c2ccc(Cl)cc2C(c2c(F)cccc2OC)=NC3)ccc1C(=O)O  oral clearance (CL/F) (human patients, plasma; oral, 40 mg, cycle 1 day 1, together with: pembrolizumab): 8.9 L/h
COc1cc(Nc2ncc(F)c(Nc3ccc4c(n3)NC(=O)C(C)(C)O4)n2)cc(OC)c1OC  oral clearance (human; oral): 12 L/h
O=C(NO)c1ccc(CN(c2cnccn2)c2cnccn2)cc1  oral bioavailability (human patients, phase I; oral): 15 to 50%
CNC(=O)c1cc(Cl)c(OC(C)(C)C(=O)O)cc1OC[C@@H](O)CN1CCC2(CC1)Cc1cc(Cl)ccc1O2  oral bioavailability (human; oral, single dose): 1.5%
CO[C@]1(C(=O)N[C@@H](C)c2ccc(-n3cc(F)cn3)nc2)CC[C@H](c2nc(C)cc(Nc3cc(C)[nH]n3)n2)CC1  oral bioavailability (human, fasted, plasma; 200 mg): 40 to 50%

Some of these lines once more:
OCc1cc(C(O)CNCCCCCCOCCCCc2ccccc2)ccc1O (stereo not drawn)  oral bioavailability (human; oral): 12%
